Experimental data from different studies.
Lines come from different studies, so protocols differ. Values joined by “and” are separate records of one study, mostly repeats; a detail may differ. ± marks the error that the study gave.
Chain of UniProt P51575 (whole entry, unmodified, looked up): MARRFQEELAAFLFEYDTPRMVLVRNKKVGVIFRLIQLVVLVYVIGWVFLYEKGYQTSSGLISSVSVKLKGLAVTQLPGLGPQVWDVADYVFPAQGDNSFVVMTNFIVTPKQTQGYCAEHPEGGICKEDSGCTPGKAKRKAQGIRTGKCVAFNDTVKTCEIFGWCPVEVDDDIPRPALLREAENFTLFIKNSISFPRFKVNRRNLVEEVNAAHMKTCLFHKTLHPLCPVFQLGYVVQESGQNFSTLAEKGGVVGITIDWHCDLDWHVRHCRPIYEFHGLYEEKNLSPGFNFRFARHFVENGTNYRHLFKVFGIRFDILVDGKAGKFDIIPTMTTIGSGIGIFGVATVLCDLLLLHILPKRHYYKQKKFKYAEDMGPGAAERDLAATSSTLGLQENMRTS

Cn1cc(-c2ccc(-c3cncc(Cl)c3N3CCC4(CCNC4=O)CC3)cc2)cn1
log2 fold change (COLO 205; gene expression, microarray, measured: TNFRSF12A (FN14) mRNA; concentration not given, 6 h; reference: untreated cells): 1.85

O=C1CCc2ccc(OCCCCN3CCN(c4cccc(Cl)c4Cl)CC3)cc2N1
discontinuation or switching rate (patients; dose not given, 3 months, CYP2D6 IM and NM): 22%

COc1cnc2cccc(N3CCc4c(cc(Cn5ccnc5C)cc4-c4cn(C)nc4C(F)(F)F)C3=O)c2c1
EC50 (HCC1588; cell growth, inhibitor; 120 h): 11.9 µM

c1coc(-c2n[nH]cc2-c2ccnc3ccccc23)c1
log2 fold change (PKH3 (Candida albicans); kinase binding, MIB/MS competition; Candida albicans lysate; 1 µM; reference: DMSO): -0.24

CC(C)n1ncc2c(C(=O)NCC3(C)CNC3)cc(C3CC3)nc21
plaque area (enterovirus A71; Tainan/4643/1998; 0.01 µM): 101% and 95.9%

CCOc1c([C@H](C)n2nc(C)c3c(N)ncnc32)cc(Cl)c(F)c1[C@@H]1CNC(=O)C1
percent change in level (Olink proximity extension, measured: MMP-9; human FL or MZL patients, plasma; dose not given, week 8 day 1, once-daily dosing; reference: baseline): -63%

N#Cc1ccc2c(-c3ccncc3)c(-c3ccc(F)cc3)nn2c1
log2 fold change (kinase binding, competitor, MIB/MS competition, measured: PKH2; Candida albicans cell lysate; 10 µM; reference: DMSO): 0.122

NC(=O)c1cnc2[nH]ccc2c1N[C@@H]1[C@@H]2CC3C[C@H]1C[C@@](O)(C3)C2
percent change (total naive T cells, flow cytometry; Japanese humans, peripheral blood; 200 mg single dose; reference: baseline): 0.02%

COc1cc(O)c(CC=C(C)C)c(O)c1C(=O)/C=C/c1ccc(O)cc1
blood glucose (glucose tolerance test; Tac:SW mice (male, conventional, high-fat diet); in diet, 60 mg/kg per day, 120 min after glucose, after 10 weeks): 225 mg/dL

CC(C)C[C@H](NC(=O)C[C@H](O)[C@H](CC(C)C)NC(=O)[C@H](Cc1c[nH]cn1)NC(=O)CNC(=O)[C@@H](NC(=O)[C@H](C)NC(=O)[C@H](Cc1c[nH]c2ccccc12)NC(=O)[C@H](CCC(N)=O)NC(=O)[C@@H](Cc1ccccc1)NC(=O)COCCOCCNC(=O)CCC(C(=O)O)N1CCN(CC(=O)O)CCN(CC(=O)O)CCN(CC(=O)O)CC1)C(C)C)C(N)=O (stereo partly drawn) [lutetium-177 labelled]
tissue uptake (female BALB/c nu/nu mice, bone; intravenous, 100 pmol, 4 h, with: PA 300 µg): 0.06 ± 0.06 %ID/g

CC(C)[C@H](NC(=O)[C@H](Cc1ccc(O)cc1)NC(=O)[C@H](Cc1ccc(O)cc1)NC(=O)[C@@H]1CCCN1C(=O)[C@H](CCC(=O)O)NC(=O)[C@H](CCC(=O)O)NC(=O)[C@H](Cc1c[nH]c2ccccc12)NC(=O)[C@@H]1CCCN1C(=O)[C@@H](NC(=O)[C@H](CCC(N)=O)NC(=O)c1ccc2c(c1)C(=O)OC21c2ccc(O)cc2Oc2cc(O)ccc21)C(C)C)C(=O)N[C@H](C(=O)N[C@@H](CCCCN)C(=O)N[C@@H](CCCCN)C(=O)N[C@@H](CO)C(=O)N[C@@H](CO)C(=O)NCC(=O)NCC(N)=O)C(C)C
share of responses (added benefit of NERVE; human head and neck surgery, nerves; 500 mg, no added benefit; reference: white light visualisation): 35.7%

C[C@H](Oc1ccc(Br)cc1-c1ccon1)C(=O)O
latency (muscle velocity recovery cycles; human, tibialis anterior muscle; 200 mg once daily, multiple doses, multiple ascending dose; reference: placebo): 0.232 ms

OC[C@H]1O[C@@H](c2ccc(Cl)c(Cc3ccc(O[C@H]4CCOC4)cc3)c2)[C@H](O)[C@@H](O)[C@@H]1O
diastolic blood pressure change (Japanese type 1 diabetes patients; 2.5 mg, day 28, 672 h; reference: baseline): -0.2 mmHg

O=C(/C=C/C=C/C=C/C1CCCCC1)NC1=C[C@@](O)(/C=C/C=C/C=C/C(=O)NC2=C(O)CCC2=O)[C@@H]2O[C@@H]2C1=O
GI50 (OMM-1; cell growth, CellTiter-Glo; 78 h): 17.4 µM

C[C@H]1C[C@H]2CSC(N)=N[C@@]2(c2nc(NC(=O)c3ccc(OC(F)F)cn3)cs2)CO1
percent change from baseline (measured: total Aβ; healthy adults, plasma; 5 mg once daily, day 4; reference: placebo): -35.4%

NCC(=O)Nc1cncc(-c2nn3c(=O)cc(N4CCNCC4)nc3s2)c1
inhibition (ADP-induced platelet aggregation, light transmission aggregometry; human, stable CAD on aspirin, ex vivo platelets; subcutaneous, 0.05 mg/kg, 120 min post-dose, median value, with: ADP 20 µM): 5.7%

CCn1cc(-c2cc(Cn3ccoc3=N)cc3c2CCN([C@@H](C)c2cc(OC)ccn2)C3=O)c(C(F)(F)F)n1
EC50 (CAMA-1; cell growth, inhibitor; 120 h): 0.923 µM

Cc1cc(C)c(CNC(=O)c2cc(Cl)c3c(c2C)O[C@@](C)([C@H]2CC[C@H](N(C)C)CC2)O3)c(=O)[nH]1
best overall response PR (relapsed/refractory NHL patients, total incl. ATLL and CTCL; oral, dose not given): 20%

Cc1cc(C)c(CNC(=O)c2cc(Cl)c3c(c2C)O[C@@](C)([C@H]2CC[C@H](N(C)C)CC2)O3)c(=O)[nH]1
best overall response PD (modified 2009 ATLL criteria; human, relapsed/refractory adult T-cell leukaemia-lymphoma; dose not given): 21%

Nc1ncnc2c1ncn2[C@@H]1O[C@H](COP(=O)(O)CP(=O)(O)OP(=O)(O)O)[C@@H](O)[C@H]1O
specific binding (P2X purinoceptor 1 (P2RX1, Homo sapiens, UniProt P51575, R139A); saturation binding; HEK293; 1 nM): 74.5 CCPM and 48.5 CCPM

O=C1Nc2cc3[nH]nc(-c4ccncc4)c3cc2CN1Cc1ccccc1
partial response, best response (RECIST v1.1; human, relapsed or refractory advanced solid tumours; intravenous, 7.2 mg/kg, pooled schedules): 0%

O=C(O)CNC(=O)Cc1ccccc1
sarcomere length (ventricular cardiomyocytes, C57BL/6 mouse; dose not given, 0.376 s): 1.72 µm

CN1CC[C@@H](c2c(O)cc(O)c3c(=O)cc(-c4ccc(C(F)(F)F)cc4Cl)oc23)[C@@H]1CO
significantly deregulated genes (RNA-seq; PBMC, human, AML; 100 to 200 mg, 6 h, 6 patients): 11 genes

CCN(O)N=Nc1ccc(S(=O)(=O)Nc2cc(C)on2)cc1
inhibition (paw oedema; rat, carrageenan oedema; oral, 100 mg/kg, 4 h after carrageenan; reference: vehicle): 88.8%

Oc1ccccc1-c1n[nH]cc1-c1ccnc2ccccc12
log2 fold change (CKA1 (Candida albicans); kinase binding, MIB/MS competition; Candida albicans lysate; 1 µM; reference: DMSO): 0.1

c1ccc(-c2n[nH]cc2-c2ccnc3ccccc23)nc1
log2 fold change (kinase binding, competitor, MIB/MS competition, measured: TOR1; Candida albicans cell lysate; 100 nM; reference: DMSO): 0.801

N#Cc1ccc2c(c1)[C@H]1CCCN(C(=O)c3ccc4[nH]cnc4c3)[C@H]1C2
change in 1.5-AHG (human, plasma; 10 mg, day 15, 360 h; reference: placebo and baseline): 2.7%
